Experimental data pooled from the literature.
Parts stem from different laboratories: compare values within a part only.

Set 1 — technique: protein-binding microarray; form: double-stranded DNA, one strand shown; medium: in vitro; concentration: 250 nM; notes: 60-bp whole probe; added: salmon DNA 0.4 mg/ml; relative to: random background probes; reading: higher = stronger binding; shared flanks, not repeated: GCCTAGCAC … GTCTTGATTCGCTTGACGCTGCTG
Target: Interferon regulatory factor 7, full length, phosphomimetic (IRF7, Homo sapiens, UniProt Q92985, residues 1-503, S101K/S471D/S472D/S475D/S476D/S477D/S483D/S484D/S487D)
Sequence of UniProt Q92985 (whole entry, unmodified, looked up): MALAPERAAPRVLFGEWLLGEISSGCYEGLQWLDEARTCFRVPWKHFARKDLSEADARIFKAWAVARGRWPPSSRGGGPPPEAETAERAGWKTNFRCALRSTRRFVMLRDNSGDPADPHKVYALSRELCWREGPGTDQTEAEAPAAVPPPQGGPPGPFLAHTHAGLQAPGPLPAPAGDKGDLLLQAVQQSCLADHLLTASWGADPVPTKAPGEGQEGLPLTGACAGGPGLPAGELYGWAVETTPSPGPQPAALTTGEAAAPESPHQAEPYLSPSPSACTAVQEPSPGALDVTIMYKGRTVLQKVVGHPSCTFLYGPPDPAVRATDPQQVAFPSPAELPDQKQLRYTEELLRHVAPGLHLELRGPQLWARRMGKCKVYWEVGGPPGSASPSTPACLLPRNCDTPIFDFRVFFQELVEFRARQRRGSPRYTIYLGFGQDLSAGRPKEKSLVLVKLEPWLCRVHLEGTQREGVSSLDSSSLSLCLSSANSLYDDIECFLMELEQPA
| Oligonucleotide | log fluorescence [z-score] |
| --- | --- |
| TCACCTCTAGGTCTTCTACTGTGCTAG | -0.0127 |
| GACGAACTGGGGTTTCGAGATGTGCTA | 2.86 |
| TCAATCTTATGATATATAACTGTGCTA | 0.134 |
| TTAGGTTTCCATATCCTTTAGTGCTAG | 4.72 |
| TCAGCTTCTTTTTTATTACTGTGCTAG | 0.51 |
| GACGGTCTCCTTAGCCTGACGTGCTAG | -0.43 |
| TACTTTCTACGTCTGATTTTGTGCTAG | 1.72 |

Set 2 — technique: universal PBM; form: double-stranded DNA, one strand shown; medium: in vitro; concentration: not given; reading: higher = stronger binding
Target: Sal-like protein 4, full length isoform B (SALL4, Homo sapiens, UniProt Q9UJQ4-2, residues 1-616)
Notes: 8-mer, flanks averaged, mean of replicates
| Oligonucleotide | E-score |
| --- | --- |
| CTGCGTTC | -0.093 |
| TTAACTAA | 0.265 |
| CGACAGGC | -0.315 |
| ACGCTACA | 0.0374 |
| CTATGTGC | 0.094 |

Set 3 — technique: protein binding microarray; form: double-stranded DNA, one strand shown; medium: in vitro; concentration: not given; relative to: not given; reading: higher = stronger binding
Target: Histone acetyltransferase KAT6A, both winged helices, GST fusion (KAT6A, Homo sapiens, UniProt Q92794, residues 1-181)
Notes: 8-mer, flanks averaged, mean of 2 arrays, mostly near background
Residues (chain): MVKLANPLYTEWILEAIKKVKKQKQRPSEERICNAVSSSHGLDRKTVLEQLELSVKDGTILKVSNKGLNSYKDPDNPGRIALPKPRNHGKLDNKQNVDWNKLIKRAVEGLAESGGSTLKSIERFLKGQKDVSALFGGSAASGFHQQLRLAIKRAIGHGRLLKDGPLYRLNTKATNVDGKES
| Oligonucleotide | E-score |
| --- | --- |
| AAAAGGGC | -0.176 |
| ACCACCCA | -0.236 |
| CTGATACA | -0.0527 |
| CTCGGGGA | 0.0984 |
| AAACGACA | -0.0408 |

Further values, each from its own experiment
| Molecule | target | test | test system | setting | how to read | quantity | result |
| --- | --- | --- | --- | --- | --- | --- | --- |
| PhoQ, residues 284 288 289 292 302 303 ALSMDL | PhoP, residues 12 14 15 18 19 NHFIF (Escherichia coli, UniProt P23836) | Sort-seq, refers to: YFP reporter | E. coli | PhoQ-PhoP variant library, added: 10 µM Mg2+ | relative to: high Mg2+ state, higher = stronger signaling | fold induction | 2.53 |

Excerpt of the above (set 2):
| Oligonucleotide | E-score |
| --- | --- |
| TTAACTAA | 0.265 |
| ACGCTACA | 0.0374 |
| CTGCGTTC | -0.093 |
